{"data": "Assay results from different studies", "note": "Numbered parts are unrelated; each lists some results of a single study. Changes are numbered by the printed parent chain."}
{"data": "Series 1", "target": "ABI1, truncated, D143A, DHFR fusion (Arabidopsis thaliana)", "method": "DHFR PCA, deep sequencing", "sample": "yeast", "notes": "methotrexate growth selection, single substitutions", "with": "(+)-ABA 2500 µM", "baseline": "wild-type fitted maximum", "direction": "higher = stronger binding", "starting sequence": "PYL1, truncated, DHFR fusion (Arabidopsis thaliana); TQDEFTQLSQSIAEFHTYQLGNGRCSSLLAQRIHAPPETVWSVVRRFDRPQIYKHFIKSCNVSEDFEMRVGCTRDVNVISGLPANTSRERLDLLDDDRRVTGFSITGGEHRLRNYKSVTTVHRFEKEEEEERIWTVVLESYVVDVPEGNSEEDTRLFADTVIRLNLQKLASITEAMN"}
{"Change": "S140K", "relative binding score": "58.1%"}
{"Change": "A175I", "relative binding score": "91.6%"}
{"Change": "I12C", "relative binding score": "91%"}
{"Change": "N22E", "relative binding score": "102%"}
{"Change": "D144I", "relative binding score": "77.5%"}
{"Change": "W41F", "relative binding score": "75.9%"}
{"Change": "S80H", "relative binding score": "80.3%"}
{"Change": "E14W", "relative binding score": "76.9%"}
{"Change": "M68F", "relative binding score": "91.5%"}
{"Change": "G81A", "relative binding score": "85.4%"}
{"Change": "D75P", "relative binding score": "25.8%"}
{"Change": "D48M", "relative binding score": "60.5%"}
{"Change": "A175R", "relative binding score": "97.1%"}
{"Change": "N177G", "relative binding score": "95%"}
{"Change": "G107D", "relative binding score": "106%"}
{"Change": "A13P", "relative binding score": "82.5%"}
{"Change": "S59I", "relative binding score": "87.2%"}
{"Change": "A13S", "relative binding score": "96.7%"}
{"Change": "T86A", "relative binding score": "96.1%"}
{"Change": "D153K", "relative binding score": "10.3%"}
{"data": "Series 2", "target": "Sal-like protein 4, full length isoform B (SALL4, Homo sapiens, UniProt Q9UJQ4-2, residues 1-616)", "method": "universal PBM", "molecule type": "double-stranded DNA, one strand shown", "sample": "in vitro", "concentration": "not given", "notes": "8-mer, flanks averaged, mean of replicates", "direction": "higher = stronger binding"}
{"Strand": "ACCGACTA", "E-score": -0.113}
{"Strand": "AGATCCAG", "E-score": -0.192}
{"Strand": "GTACTCAA", "E-score": 0.053}
{"Strand": "AGGTCGTG", "E-score": -0.163}
{"Strand": "AAAGGCAA", "E-score": 0.134}
{"Strand": "ACAATCCC", "E-score": -0.00469}
{"Strand": "AGTCTTTG", "E-score": -0.0224}
{"Strand": "AAGGGAAA", "E-score": 0.228}
{"Strand": "CCTTTGGC", "E-score": -0.174}
{"Strand": "AAACACTC", "E-score": 0.113}
{"Strand": "AGAGCTCG", "E-score": -0.12}
{"Strand": "GACCCACC", "E-score": -0.266}
{"Strand": "CCCAGTAC", "E-score": -0.147}
{"Strand": "CTTAATTA", "E-score": 0.327}
{"Strand": "AAACCGAG", "E-score": -0.0387}
{"Strand": "CGTTGCAC", "E-score": -0.0215}
{"Strand": "TAATGAGA", "E-score": 0.269}
{"Strand": "AGAACATG", "E-score": 0.145}
{"Strand": "ACCTCCGT", "E-score": -0.0997}
{"Strand": "TAACATAA", "E-score": 0.356}
{"Strand": "AAGACGGC", "E-score": -0.135}
{"Strand": "ACGGGAAA", "E-score": -0.115}
{"Strand": "AAATCGCG", "E-score": 0.0468}
{"Strand": "GTGCACAA", "E-score": -0.0337}
{"Strand": "GAAGCGCA", "E-score": -0.252}
{"data": "Series 3", "target": "Histone acetyltransferase KAT6A, winged helix 1, GST fusion (KAT6A, Homo sapiens, UniProt Q92794, residues 1-85)", "method": "protein binding microarray", "molecule type": "double-stranded DNA, one strand shown", "sample": "in vitro", "concentration": "not given", "notes": "8-mer, flanks averaged, mean of 2 arrays, mostly near background", "baseline": "not given", "direction": "higher = stronger binding", "Construct (chain)": "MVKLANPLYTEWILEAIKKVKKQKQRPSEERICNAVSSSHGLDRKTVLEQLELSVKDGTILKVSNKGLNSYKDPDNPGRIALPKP"}
{"Strand": "ACGTTGGA", "E-score": -0.216}
{"Strand": "CCGCATAG", "E-score": 0.195}
{"Strand": "AGAACCCC", "E-score": -0.191}
{"Strand": "ACGACTTG", "E-score": -0.15}
{"Strand": "AAGCTTCT", "E-score": -0.172}
{"Strand": "CATTGGAC", "E-score": -0.0836}
{"Strand": "CACCAACG", "E-score": 0.11}
{"Strand": "AGGGAGTG", "E-score": -0.208}
{"Strand": "GACTTGGA", "E-score": -0.187}
{"Strand": "AATTAACA", "E-score": -0.182}
{"Strand": "ATAGGTGA", "E-score": -0.256}
{"Strand": "GACGTCAC", "E-score": 0.0272}
{"Strand": "AATTAAAG", "E-score": -0.189}
{"Strand": "CAGTAAAA", "E-score": -0.155}
{"Strand": "CCGGGACA", "E-score": 0.26}
{"Strand": "CAGGTAGC", "E-score": 0.0105}
{"Strand": "ACTCTTAC", "E-score": -0.226}
{"Strand": "AACTACGT", "E-score": -0.035}
{"Strand": "GATCTACA", "E-score": -0.17}
{"Strand": "GACACTCC", "E-score": -0.156}
{"Strand": "CTATGCAA", "E-score": -0.138}
{"Strand": "GGGCCCGA", "E-score": 0.201}
{"Strand": "GGCAGCCC", "E-score": 0.2}
{"data": "Series 4", "target": "DBP, bZIP domain (human)", "method": "DHFR protein complementation", "sample": "yeast", "notes": "single substitutions, most at no-binding floor", "baseline": "wild-type JUN-FOS pair", "direction": "higher = stronger binding", "starting sequence": "JUN, bZIP domain (human); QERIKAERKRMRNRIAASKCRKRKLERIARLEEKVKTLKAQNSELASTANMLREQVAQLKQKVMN; partner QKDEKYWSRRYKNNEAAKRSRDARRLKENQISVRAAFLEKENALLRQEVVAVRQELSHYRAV"}
{"Change": "E32F", "binding fitness": "-1.48 natural log"}
{"Change": "A29I", "binding fitness": "-1.26 natural log"}
{"Change": "S47G", "binding fitness": "-1.49 natural log"}
{"Change": "E33V", "binding fitness": "-1.39 natural log"}
{"Change": "L31V", "binding fitness": "-1.55 natural log"}
{"Change": "K39I", "binding fitness": "-1.47 natural log"}
{"Change": "L31N", "binding fitness": "-1.47 natural log"}
{"Change": "E33T", "binding fitness": "-1.42 natural log"}
{"Change": "K36P", "binding fitness": "-1.45 natural log"}
{"Change": "S47V", "binding fitness": "-1.46 natural log"}
{"Change": "Q41P", "binding fitness": "-1.55 natural log"}
{"Change": "N42Y", "binding fitness": "-1.47 natural log"}
{"Change": "R53N", "binding fitness": "-1.54 natural log"}
{"data": "Series 5", "target": "RING finger protein unkempt homolog, zinc fingers 1-6, GST-SBP tag (UNK, Homo sapiens, UniProt Q9C0B0, residues 30-357)", "method": "RNA Bind-n-Seq", "molecule type": "RNA", "sample": "in vitro", "concentration": "not given", "notes": "RNA with constant flanks, ends assumed", "baseline": "input RNA pool", "direction": "higher = stronger binding", "constant ends, left off below": "GGGAGUUCUACAGUCCGACGAUC … CAACAGAGGAUUGAGCAUCA", "UniProt Q9C0B0, sequence (30-357, looked up)": "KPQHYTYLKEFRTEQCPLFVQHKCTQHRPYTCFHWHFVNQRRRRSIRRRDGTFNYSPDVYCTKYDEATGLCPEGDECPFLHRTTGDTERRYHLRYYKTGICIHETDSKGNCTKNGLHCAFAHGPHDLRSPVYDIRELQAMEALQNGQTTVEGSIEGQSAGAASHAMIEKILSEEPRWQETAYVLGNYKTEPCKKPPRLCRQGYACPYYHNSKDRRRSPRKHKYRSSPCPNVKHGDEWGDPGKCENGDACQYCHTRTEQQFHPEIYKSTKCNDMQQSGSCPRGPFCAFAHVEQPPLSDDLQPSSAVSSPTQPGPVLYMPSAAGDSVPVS"}
{"Strand": "CUUCAGUUACAUCCCAGGGAAGAUGCUUGCAUCCCCAAUACAAACUAUGGUGUUCUCUUAACCGAGUUUUUUGAAUUAUAUGGACGGCACUUCAAUUACUUAAAGACUGGCAUCCGGAUA", "bound/input enrichment [ratio]": 0.308}
{"Strand": "GAUGUCAGGACUAUCUUGCUCUCUAUCCAGAGCCUGCUAGGAGAACCCAACAUCGACCGCCCUUUGAACACACACGCUGCGGAACUCUGGAAAAACCCCACAGCAUUUAAGAAAUACCUG", "bound/input enrichment [ratio]": 0.239}
{"Strand": "AUCAAAUACUUUGGGGACAUCAUUAGUGUGGGACAGAGACUGUUGCAAGGAGCUCGGAUCUCCGGGAUUCCAGUUAUCAUAACGGAACAAUACCCCAAAGGACUUGGCAGCACCGUUCAA", "bound/input enrichment [ratio]": 0.193}
{"Strand": "ACCUCAAACCAGAAAUACCUCAGAAUUUUCUACUUAUGUAAGGUUUAUUAUAUAUUUUGUCCGUUGUGUUGUCUUGUAGUAAGUAUAUUUUAAUGUAAGUUGGCUUUUGUGACAAGGAAG", "bound/input enrichment [ratio]": 3.7}
{"Strand": "GAUGUUAGGGAUGUGGUUGGGCGACGUCUAGAUCCCAGAGAAGGCCCUGGAAGGCCUCCAUCCGAUGCUAGGGAUCAUUUUGGAAGACCUCCUGUGGACAUGAGGGAGAAUCUUGUGAGG", "bound/input enrichment [ratio]": 0.499}
{"Strand": "AUCAGCUGGACAGAGCAGAACUAUCCUCAAGGUGGGAAGGAGAGUAAUAUGUCAACGUUAUCCGAAAGAGCUGUAGAAGCACUACAAGGAGAAAAACGAUAUUAUAGUGAUCCUCGAUUU", "bound/input enrichment [ratio]": 0.268}
{"data": "Series 6", "target": "CCND2, cyclin fold, Cln2 fusion (human)", "method": "yeast growth competition, sequencing", "sample": "yeast", "notes": "weak parent motif", "baseline": "not given", "direction": "higher = stronger binding", "starting sequence": "CDKN1A docking peptide (human); SKACRRLFGPVDS"}
{"Change": "D12G", "normalised enrichment score": 0.392}
{"Change": "K2F", "normalised enrichment score": 0.276}
{"Change": "P10M", "normalised enrichment score": 0.232}
{"Change": "P10H", "normalised enrichment score": -0.0542}
{"Change": "V11M", "normalised enrichment score": 0.245}
{"Change": "C4F", "normalised enrichment score": -0.746}
{"Change": "L7W", "normalised enrichment score": 0.334}
{"Change": "L7V", "normalised enrichment score": 0.254}
{"Change": "R5K", "normalised enrichment score": -0.483}
{"Change": "D12I", "normalised enrichment score": 0.143}
{"Change": "L7G", "normalised enrichment score": -0.285}
{"Change": "V11D", "normalised enrichment score": 1.72}
{"Change": "R5T", "normalised enrichment score": 0.211}
{"Change": "K2M", "normalised enrichment score": 0.5}
{"data": "Series 7", "target": "Ras GTPase-activating protein-binding protein 1, full length (G3BP1, Homo sapiens, UniProt Q13283)", "method": "RNA Bind-n-Seq", "molecule type": "RNA", "sample": "in vitro", "concentration": "200 nM", "notes": "whole 134-nt RNA, ends assumed", "with": "150 mM LiCl", "baseline": "input library", "direction": "higher = stronger binding", "all molecules": "7-deaza-guanosine replaces G", "constant ends, left off below": "GGGAGUUCUACAGUCCGACGAUC … UGGAAUUCUCGGGUGUCAAGG", "UniProt Q13283, sequence (whole entry, looked up)": "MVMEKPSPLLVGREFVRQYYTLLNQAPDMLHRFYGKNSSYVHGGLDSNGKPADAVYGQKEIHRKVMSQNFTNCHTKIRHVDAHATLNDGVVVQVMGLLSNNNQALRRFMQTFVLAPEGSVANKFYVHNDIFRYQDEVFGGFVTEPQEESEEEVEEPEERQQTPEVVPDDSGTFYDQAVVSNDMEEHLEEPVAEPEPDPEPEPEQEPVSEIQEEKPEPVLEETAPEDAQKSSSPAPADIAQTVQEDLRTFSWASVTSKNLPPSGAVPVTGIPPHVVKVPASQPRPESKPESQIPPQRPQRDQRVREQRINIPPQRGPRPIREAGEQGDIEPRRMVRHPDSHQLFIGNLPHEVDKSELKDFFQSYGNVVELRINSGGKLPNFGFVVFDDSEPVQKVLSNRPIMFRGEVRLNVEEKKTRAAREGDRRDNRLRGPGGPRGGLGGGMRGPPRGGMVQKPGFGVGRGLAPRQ"}
{"Strand": "UUGCUGUCACCCGCUGCCUGUCUGCAGGAUCCCGGAUUCCGUAUCAGGGGACCGAAAUUAGUCGGAAAAUAGGAAGCAGGUGCUCGCUUG", "log2 enrichment": -1.12}
{"Strand": "UGUGCUACACAUCGUAUGUACCGAAUCGGGGUUUUUUUGGUUUUUUUGGGGUUUUUUUGGGGAAAGUAUUAUGUUACGCCGUUCGGAUCU", "log2 enrichment": 1.62}
{"Strand": "CAAGCCAAGGAAAUGGUGUUAGAGUUAAUUCGUGAUCAAGGCGGUUUCAGAGAAGUUCGGAAUGAGUAUGGGUCAAGAAUAGGAGGAAAU", "log2 enrichment": -2.28}
{"Strand": "UGGACAUGGAUUUUCAAGCCUACUUAGCUUCCUCUAGUGAAGAUGAAGAGGAGAUAGAAGAGGAGCUACAAGGUAUUGUUAAUCUUUCAG", "log2 enrichment": -1.76}
{"Strand": "CACAGACAACACGCACCCACACAGACACAGAGGGAAGGGGUUGGGAUGGCGACAGGGUGCACAGCAGGGCGGGGUAGGACCCCAGCCCCU", "log2 enrichment": 0.261}
{"Strand": "UCCUCAAGUCCUGUGCUACACAUCGUAUGUACCGAAUCGGUGGGUGGUGGGAAAGUAUUAUGUUACGCCGUUCGGAUCUGCACUUCCAGC", "log2 enrichment": 0.485}
{"Strand": "GUCCUGUGCUACACAUCGUAUGUACCGAAUCGGGGUUUUUUUGGGGUGGGGAAAGGGGAAAGUAUUAUGUUACGCCGUUCGGAUCUGCAC", "log2 enrichment": 0.44}
{"Strand": "CUCAAGUCCUGUGCUACACAUCGUAUGUACCGAAUCGGAAGGGAAGGGAAGGGGAAAGUAUUAUGUUACGCCGUUCGGAUCUGCACUUCC", "log2 enrichment": 0.0468}
{"note": "Repeated from above (series 3):"}
{"Strand": "GGGCCCGA", "E-score": 0.201}
{"Strand": "ACTCTTAC", "E-score": -0.226}
{"Strand": "AGAACCCC", "E-score": -0.191}
{"Strand": "CAGGTAGC", "E-score": 0.0105}
{"Strand": "GACTTGGA", "E-score": -0.187}
{"Strand": "GACGTCAC", "E-score": 0.0272}
{"Strand": "ACGACTTG", "E-score": -0.15}
{"Strand": "AGGGAGTG", "E-score": -0.208}
{"Strand": "AACTACGT", "E-score": -0.035}
{"Strand": "CCGCATAG", "E-score": 0.195}
{"Strand": "GACACTCC", "E-score": -0.156}
{"Strand": "GATCTACA", "E-score": -0.17}
